Assay results gathered from unrelated publications.
Parts stem from different laboratories: compare values within a part only. Changes are numbered by the printed parent chain.
Sequence of UniProt Q16539 (whole entry, looked up): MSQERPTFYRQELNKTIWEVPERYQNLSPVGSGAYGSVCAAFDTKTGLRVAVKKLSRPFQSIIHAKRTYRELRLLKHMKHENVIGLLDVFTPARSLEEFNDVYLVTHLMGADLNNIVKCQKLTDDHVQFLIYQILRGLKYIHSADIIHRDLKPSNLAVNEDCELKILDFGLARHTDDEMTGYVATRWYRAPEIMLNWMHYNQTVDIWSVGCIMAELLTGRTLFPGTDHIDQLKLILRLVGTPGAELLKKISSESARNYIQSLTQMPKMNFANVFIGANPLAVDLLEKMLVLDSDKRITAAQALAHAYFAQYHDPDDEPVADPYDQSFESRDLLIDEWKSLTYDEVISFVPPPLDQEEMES
Sequence of UniProt P22607 (whole entry, unmodified, looked up): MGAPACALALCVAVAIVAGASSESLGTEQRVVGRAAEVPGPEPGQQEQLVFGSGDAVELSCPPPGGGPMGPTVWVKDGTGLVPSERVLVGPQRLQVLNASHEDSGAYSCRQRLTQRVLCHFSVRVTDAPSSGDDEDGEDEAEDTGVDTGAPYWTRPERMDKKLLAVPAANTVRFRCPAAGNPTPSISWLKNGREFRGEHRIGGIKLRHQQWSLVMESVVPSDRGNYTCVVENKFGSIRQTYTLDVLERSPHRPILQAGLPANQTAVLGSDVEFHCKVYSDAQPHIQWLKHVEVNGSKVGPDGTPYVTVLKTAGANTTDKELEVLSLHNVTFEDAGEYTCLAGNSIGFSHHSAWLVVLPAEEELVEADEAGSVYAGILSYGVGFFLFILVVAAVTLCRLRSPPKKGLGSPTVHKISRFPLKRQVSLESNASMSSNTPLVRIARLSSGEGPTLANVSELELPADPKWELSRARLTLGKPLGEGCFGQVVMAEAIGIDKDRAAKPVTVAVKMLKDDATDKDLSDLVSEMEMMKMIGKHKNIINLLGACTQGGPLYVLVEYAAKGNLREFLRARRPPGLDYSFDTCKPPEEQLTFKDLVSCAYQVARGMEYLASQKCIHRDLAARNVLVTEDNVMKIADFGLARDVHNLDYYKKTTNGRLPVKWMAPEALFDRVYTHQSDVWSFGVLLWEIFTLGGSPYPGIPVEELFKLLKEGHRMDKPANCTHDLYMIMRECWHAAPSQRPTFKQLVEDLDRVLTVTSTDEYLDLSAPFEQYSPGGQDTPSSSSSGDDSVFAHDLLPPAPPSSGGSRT
Sequence of UniProt P35626 (whole entry, looked up): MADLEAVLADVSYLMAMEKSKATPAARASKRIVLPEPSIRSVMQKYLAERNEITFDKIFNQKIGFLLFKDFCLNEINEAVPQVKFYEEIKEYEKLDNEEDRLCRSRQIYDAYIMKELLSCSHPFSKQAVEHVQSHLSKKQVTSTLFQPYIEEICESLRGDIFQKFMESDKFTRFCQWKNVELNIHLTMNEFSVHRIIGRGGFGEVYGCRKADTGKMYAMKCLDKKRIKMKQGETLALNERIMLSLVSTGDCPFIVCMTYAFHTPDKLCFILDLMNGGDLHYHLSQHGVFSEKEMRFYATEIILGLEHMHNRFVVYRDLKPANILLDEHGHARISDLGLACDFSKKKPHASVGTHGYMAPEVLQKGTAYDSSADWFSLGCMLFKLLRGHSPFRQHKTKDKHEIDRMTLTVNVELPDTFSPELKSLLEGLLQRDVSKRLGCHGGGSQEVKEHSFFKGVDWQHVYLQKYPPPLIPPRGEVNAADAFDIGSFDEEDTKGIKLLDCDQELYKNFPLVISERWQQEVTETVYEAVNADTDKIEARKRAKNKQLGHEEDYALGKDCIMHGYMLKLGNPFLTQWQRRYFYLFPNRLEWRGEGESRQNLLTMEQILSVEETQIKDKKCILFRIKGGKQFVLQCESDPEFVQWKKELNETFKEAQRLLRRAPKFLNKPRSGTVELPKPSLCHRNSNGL
Sequence of UniProt P24723 (whole entry, looked up): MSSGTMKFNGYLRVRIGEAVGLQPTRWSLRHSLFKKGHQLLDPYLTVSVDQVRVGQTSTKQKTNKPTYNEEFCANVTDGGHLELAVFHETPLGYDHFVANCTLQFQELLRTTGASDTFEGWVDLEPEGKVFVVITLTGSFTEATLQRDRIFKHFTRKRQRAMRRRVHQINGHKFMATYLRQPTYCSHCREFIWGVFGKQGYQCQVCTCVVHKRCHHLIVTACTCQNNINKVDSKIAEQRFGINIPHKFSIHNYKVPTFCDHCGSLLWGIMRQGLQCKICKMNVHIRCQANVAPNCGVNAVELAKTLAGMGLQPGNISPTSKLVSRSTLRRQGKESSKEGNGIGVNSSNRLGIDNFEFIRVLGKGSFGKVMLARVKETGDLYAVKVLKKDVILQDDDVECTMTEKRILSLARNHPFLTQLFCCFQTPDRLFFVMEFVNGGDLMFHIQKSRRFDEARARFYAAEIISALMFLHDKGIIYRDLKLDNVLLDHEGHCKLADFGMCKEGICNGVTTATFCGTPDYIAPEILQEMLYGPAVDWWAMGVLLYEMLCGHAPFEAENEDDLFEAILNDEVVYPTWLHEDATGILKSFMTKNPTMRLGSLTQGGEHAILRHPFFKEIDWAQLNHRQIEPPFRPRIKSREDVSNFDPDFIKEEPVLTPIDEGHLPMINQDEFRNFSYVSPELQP
Sequence of UniProt Q15139 (whole entry, looked up): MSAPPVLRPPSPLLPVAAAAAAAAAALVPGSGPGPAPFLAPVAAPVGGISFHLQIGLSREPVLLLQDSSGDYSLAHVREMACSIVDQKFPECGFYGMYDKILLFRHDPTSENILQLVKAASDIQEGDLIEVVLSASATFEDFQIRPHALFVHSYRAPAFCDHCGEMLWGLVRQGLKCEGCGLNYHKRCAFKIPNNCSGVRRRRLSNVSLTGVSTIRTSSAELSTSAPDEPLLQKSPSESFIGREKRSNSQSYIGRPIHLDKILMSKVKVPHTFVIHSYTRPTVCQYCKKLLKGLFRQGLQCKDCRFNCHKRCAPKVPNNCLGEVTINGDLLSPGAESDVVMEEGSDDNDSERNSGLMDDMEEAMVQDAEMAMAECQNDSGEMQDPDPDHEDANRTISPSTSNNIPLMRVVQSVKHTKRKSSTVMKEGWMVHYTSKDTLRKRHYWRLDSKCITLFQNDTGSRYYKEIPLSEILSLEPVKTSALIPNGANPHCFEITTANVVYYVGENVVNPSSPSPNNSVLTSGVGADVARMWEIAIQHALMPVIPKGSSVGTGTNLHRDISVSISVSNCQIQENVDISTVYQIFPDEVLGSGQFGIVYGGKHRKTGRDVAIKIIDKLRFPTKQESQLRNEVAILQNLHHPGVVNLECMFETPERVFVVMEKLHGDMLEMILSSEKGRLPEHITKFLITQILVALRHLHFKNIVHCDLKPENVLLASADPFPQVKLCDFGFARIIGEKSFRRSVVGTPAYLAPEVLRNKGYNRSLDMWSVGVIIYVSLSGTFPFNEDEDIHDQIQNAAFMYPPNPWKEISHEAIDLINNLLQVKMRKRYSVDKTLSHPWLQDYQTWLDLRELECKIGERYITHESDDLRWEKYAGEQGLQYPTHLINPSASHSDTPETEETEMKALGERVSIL
Sequence of UniProt Q8NEV4 (whole entry, looked up): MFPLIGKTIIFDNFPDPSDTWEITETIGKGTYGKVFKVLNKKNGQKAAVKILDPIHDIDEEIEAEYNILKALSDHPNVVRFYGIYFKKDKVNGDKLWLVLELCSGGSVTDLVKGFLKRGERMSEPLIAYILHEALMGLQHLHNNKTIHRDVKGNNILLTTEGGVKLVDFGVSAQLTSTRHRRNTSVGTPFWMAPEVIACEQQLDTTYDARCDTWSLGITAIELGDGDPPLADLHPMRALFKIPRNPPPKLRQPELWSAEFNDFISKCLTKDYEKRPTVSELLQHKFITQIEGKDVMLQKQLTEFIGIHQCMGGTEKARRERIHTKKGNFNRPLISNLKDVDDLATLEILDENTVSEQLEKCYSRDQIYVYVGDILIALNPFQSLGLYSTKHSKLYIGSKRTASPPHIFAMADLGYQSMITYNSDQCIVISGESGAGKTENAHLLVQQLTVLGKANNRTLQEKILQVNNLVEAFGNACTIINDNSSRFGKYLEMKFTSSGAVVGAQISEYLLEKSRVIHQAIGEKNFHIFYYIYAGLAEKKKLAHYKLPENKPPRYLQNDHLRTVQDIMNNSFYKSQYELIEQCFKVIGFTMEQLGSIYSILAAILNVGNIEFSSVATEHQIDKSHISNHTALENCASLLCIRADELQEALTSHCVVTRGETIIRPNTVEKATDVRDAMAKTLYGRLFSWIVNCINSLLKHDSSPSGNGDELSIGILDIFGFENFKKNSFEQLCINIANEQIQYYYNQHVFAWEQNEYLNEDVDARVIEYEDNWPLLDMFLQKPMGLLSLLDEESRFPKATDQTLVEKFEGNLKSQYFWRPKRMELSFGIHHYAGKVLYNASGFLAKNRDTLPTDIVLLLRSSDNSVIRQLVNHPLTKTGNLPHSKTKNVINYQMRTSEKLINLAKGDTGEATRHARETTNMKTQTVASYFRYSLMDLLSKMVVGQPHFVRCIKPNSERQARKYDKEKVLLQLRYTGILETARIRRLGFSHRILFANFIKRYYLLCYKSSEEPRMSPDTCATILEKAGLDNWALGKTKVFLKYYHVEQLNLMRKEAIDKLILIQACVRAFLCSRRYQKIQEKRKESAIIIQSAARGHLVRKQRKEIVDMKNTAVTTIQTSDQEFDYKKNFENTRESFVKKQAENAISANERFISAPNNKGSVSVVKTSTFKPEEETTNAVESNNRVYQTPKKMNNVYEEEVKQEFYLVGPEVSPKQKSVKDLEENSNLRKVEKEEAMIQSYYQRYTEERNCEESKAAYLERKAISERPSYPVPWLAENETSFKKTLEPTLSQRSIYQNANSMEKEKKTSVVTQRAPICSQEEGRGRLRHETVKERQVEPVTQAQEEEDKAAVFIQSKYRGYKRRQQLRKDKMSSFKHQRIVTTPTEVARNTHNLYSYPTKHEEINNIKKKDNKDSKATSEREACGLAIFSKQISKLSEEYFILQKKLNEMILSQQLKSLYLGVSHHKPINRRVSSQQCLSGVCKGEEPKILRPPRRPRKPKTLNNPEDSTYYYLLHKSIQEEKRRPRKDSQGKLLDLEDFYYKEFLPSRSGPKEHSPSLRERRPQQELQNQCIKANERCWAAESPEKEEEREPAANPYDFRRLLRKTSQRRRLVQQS

Set 1
Target: CCNE2, cyclin fold, Cln2 fusion (human)
Method: yeast growth competition, sequencing
Matrix: yeast
Notes: weak parent motif
Reference: not given
Reading: higher = stronger binding
Starting sequence: E2F7 docking peptide (human); SSAQRRLEIPSGG; partner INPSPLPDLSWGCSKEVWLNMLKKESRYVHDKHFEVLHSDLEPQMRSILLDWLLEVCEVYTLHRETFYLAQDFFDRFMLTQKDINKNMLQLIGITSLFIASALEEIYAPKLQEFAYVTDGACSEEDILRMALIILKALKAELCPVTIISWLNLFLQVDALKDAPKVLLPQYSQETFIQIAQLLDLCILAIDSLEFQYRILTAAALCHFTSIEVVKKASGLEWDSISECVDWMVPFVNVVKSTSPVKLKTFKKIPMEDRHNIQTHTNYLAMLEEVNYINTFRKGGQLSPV
| Change | normalised enrichment score |
| --- | --- |
| SSAQRRAEIPSGG [L7A] | -0.259 |
| SSAQARAEIPSGG [R5A L7A] | -0.144 |
| SSAQRRLEIPSAG [G12A] | -0.156 |
| SSAQRRLAIPSGG [E8A] | 0.545 |
| SSAQRRLEIPSGA [G13A] | 0.393 |
| SSAQKRLEFPSGG [R5K I9F] | 0.334 |
| SSAARRLEIPSGG [Q4A] | 0.663 |
| SSAQRRLEFPSGG [I9F] | 2.26 |

Set 2
Change: H16W
Target: ABI1, truncated, D143A, DHFR fusion (Arabidopsis thaliana)
Method: DHFR PCA, deep sequencing
Matrix: yeast
Notes: methotrexate growth selection, single substitutions
Reference: wild-type fitted maximum
Reading: higher = stronger binding
Starting sequence: PYL1, truncated, DHFR fusion (Arabidopsis thaliana); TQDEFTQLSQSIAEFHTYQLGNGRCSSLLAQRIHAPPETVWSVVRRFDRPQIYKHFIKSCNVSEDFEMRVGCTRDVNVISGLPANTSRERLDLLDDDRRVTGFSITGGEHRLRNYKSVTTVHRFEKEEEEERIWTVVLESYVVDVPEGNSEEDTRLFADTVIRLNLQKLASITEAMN
| with | relative binding score |
| --- | --- |
| (+)-ABA 17 µM | -21% |
| (+)-ABA 4.8 µM | 10.4% |
| (+)-ABA 1.4 µM | -5.42% |
| (+)-ABA 2500 µM | 37.9% |
| (+)-ABA 0.11 µM | -2.33% |
| (+)-ABA 710 µM | 5.39% |

Set 3
Compound: O=C(Nc1cccnn1)N1CCC(=Cc2cccc(Oc3ccc(C(F)(F)F)cn3)c2)CC1
Method: competition with immobilised ligand
Tested at: 1 µM
| target | effect on | remaining binding |
| --- | --- | --- |
| Tyrosine-protein kinase ABL1, phosphorylated (ABL1, Homo sapiens, UniProt P00519, E255K) | binding | 85% |
| Serine/threonine-protein kinase Nek1 (NEK1, Homo sapiens, UniProt Q96PY6) | cell-free assay | 98% |
| Mitogen-activated protein kinase 14 (MAPK14, Homo sapiens, UniProt Q16539) | cell-free assay | 100% |
| Serine/threonine-protein kinase D1 (PRKD1, Homo sapiens, UniProt Q15139) | cell-free assay | 100% |
| Protein kinase C eta type (PRKCH, Homo sapiens, UniProt P24723) | cell-free assay | 77% |
| Calcium/calmodulin-dependent protein kinase kinase 1 (CAMKK1, Homo sapiens, UniProt Q8N5S9) | cell-free assay | 92% |
| G protein-coupled receptor kinase 3 (GRK3, Homo sapiens, UniProt P35626) | cell-free assay | 100% |
| Serine/threonine-protein kinase 33 (STK33, Homo sapiens, UniProt Q9BYT3) | cell-free assay | 100% |
| Mitogen-activated protein kinase kinase kinase 9 (MAP3K9, Homo sapiens, UniProt P80192) | cell-free assay | 100% |
| 5'-AMP-activated protein kinase catalytic subunit alpha-2 (PRKAA2, Homo sapiens, UniProt P54646) | cell-free assay | 100% |
| Dual specificity protein kinase CLK3 (CLK3, Homo sapiens, UniProt P49761) | cell-free assay | 100% |
| G protein-coupled receptor kinase 4 (GRK4, Homo sapiens, UniProt P32298) | cell-free assay | 97% |
| Fibroblast growth factor receptor 3 (FGFR3, Homo sapiens, UniProt P22607, G697C) | cell-free assay | 100% |
| Non-receptor tyrosine-protein kinase TYK2, JH2 (TYK2, Homo sapiens, UniProt P29597) | cell-free assay | 100% |
| Myosin-IIIa (MYO3A, Homo sapiens, UniProt Q8NEV4) | cell-free assay | 100% |

Single results of other studies
| SMILES | species | matrix | tested at | time | endpoint | result |
| --- | --- | --- | --- | --- | --- | --- |
| Cc1cc(C#N)cc(C(=O)c2c(C(C)C)c(=O)n(Cc3cc(Cl)cc(Cl)n3)c(=O)n2Cc2cc(Cl)nc(Cl)n2)c1 | human | microsomes or S9 | 2 µM | 0.5 h | remaining compound | 0% |

Some of these lines once more (single results of other studies):
| SMILES | species | matrix | tested at | time | endpoint | result |
| --- | --- | --- | --- | --- | --- | --- |
| Cc1cc(C#N)cc(C(=O)c2c(C(C)C)c(=O)n(Cc3cc(Cl)cc(Cl)n3)c(=O)n2Cc2cc(Cl)nc(Cl)n2)c1 | human | microsomes or S9 | 2 µM | 0.5 h | remaining compound | 0% |
